Experimental data of several laboratories.
A part holds a random share of what one study measured. Changes are numbered by the printed parent chain.

Study 1
Target: ABI1, truncated, D143A, DHFR fusion (Arabidopsis thaliana)
Method: DHFR PCA, deep sequencing
Medium: yeast
Notes: methotrexate growth selection, single substitutions
Together with: (+)-ABA 0.39 µM
Baseline: wild-type fitted maximum
Reading: higher = stronger binding
Parent: PYL1, truncated, DHFR fusion (Arabidopsis thaliana); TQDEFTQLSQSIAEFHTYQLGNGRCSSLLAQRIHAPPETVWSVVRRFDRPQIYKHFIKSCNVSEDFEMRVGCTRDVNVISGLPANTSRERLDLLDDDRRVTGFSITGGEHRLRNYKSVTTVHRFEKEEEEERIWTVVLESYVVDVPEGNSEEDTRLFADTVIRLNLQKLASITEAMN; partner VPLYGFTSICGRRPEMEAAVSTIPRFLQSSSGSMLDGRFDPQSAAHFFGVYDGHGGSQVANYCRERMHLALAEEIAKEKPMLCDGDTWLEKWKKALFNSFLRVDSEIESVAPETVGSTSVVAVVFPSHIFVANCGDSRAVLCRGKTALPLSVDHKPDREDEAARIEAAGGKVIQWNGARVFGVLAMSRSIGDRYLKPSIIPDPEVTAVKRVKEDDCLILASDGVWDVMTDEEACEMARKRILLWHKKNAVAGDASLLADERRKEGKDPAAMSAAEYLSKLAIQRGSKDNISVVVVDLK
Substitution	relative binding score
G23S	13.7%
G21R	40%
E4F	24.3%
D153R	0.987%
I57A	-14.6%
Q2P	62.6%
A13H	30.1%
F103H	0.917%
A30T	30.6%
F56G	-5.72%
P83Q	15.5%
I33W	4.22%
Y141E	0.663%
S9A	50.4%

Study 2
Target: CCNB3, cyclin fold, Cln2 fusion (human)
Method: yeast growth competition, sequencing
Medium: yeast
Notes: weak parent motif
Baseline: not given
Reading: higher = stronger binding
Parent: CDC6 docking peptide (human); TLKGRRLVFDNQL; partner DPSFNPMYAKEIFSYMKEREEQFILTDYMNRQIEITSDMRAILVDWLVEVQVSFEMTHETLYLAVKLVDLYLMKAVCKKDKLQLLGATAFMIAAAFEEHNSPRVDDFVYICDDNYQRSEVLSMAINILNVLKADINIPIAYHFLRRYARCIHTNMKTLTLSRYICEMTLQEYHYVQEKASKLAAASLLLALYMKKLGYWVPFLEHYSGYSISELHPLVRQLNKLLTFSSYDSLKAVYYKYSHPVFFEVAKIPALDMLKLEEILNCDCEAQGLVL
Substitution	normalised enrichment score
L7T	0.224
K3G	0.237
N11P	0.156
G4A	0.225
N11H	0.213
N11F	0.874
F9C	-0.133
V8H	0.562

Study 3
Target: RNA binding protein fox-1 homolog 2, RRM domain, GST-SBP tag (RBFOX2, Homo sapiens, UniProt O43251-10, residues 100-194)
Method: RNA Bind-n-Seq
Form: RNA
Medium: in vitro
Concentration: 365 nM
Notes: natural RNA segment, single round, ends assumed
Baseline: no-protein control
Reading: higher = stronger binding
Residues (chain): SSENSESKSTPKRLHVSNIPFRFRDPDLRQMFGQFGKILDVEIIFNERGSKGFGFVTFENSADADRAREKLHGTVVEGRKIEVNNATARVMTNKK
Oligonucleotide	RBNS enrichment (R)
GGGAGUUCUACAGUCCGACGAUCCCCUGCACUCAAGGGCCAGACCACUCUCUGCAUGGACCAGACCAUCUUCCCAAACCCAUGGUGCUUUUUCCCCAACUCAACCUAGACUCCAAGGUGGGGAGGGAUGGGUCUGGAAUUCUCGGGUGCCAA	3.83
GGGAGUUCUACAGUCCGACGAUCGUGAACGCCAGCGGCGGCCGACUUCUAUCCCAAGCACUGCGCAAAAGCAGAGGAACGGAAAGGGAAAGGGCCAGGUCAUCCUCAGCCACAUAGUGAGUCCAAGGUCGGCCUGGAAUUCUCGGGUGCCAA	0.243
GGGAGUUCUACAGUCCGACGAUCCUCUCUUAACCCUUUCUCUGCUCCCAGCCUGCCUCACCAGGGAAGGUUGGAGGGGCCUCCCUCUGGCUUCUGCAUCUGCGCCAGCAAACAUCACUGCCGUUGGUCUCUCAUGGAAUUCUCGGGUGCCAA	3.38
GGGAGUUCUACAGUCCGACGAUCCAGGUGGGCUAGCAUCUGUGAGUUUGCCUCGGCUAGCCUUGCUUCCUACAGCCGCCACUGCUCCUCCACCCUGAUCAUCUCACAGGACAGGGUGGACCGGGUUUUUUUUUUGGAAUUCUCGGGUGCCAA	0.4
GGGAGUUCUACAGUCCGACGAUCGGGAAAAAGGUUGUUACCUCAAAGUCAUUGCUUCUUUCCUGGCUGGGUCACAGGGUGAAGAGAUGAAGGUGUCUGAUGUAUAUAGACAAUUAGGGAAAAAUGAGCGGCAAUGGAAUUCUCGGGUGCCAA	0.928
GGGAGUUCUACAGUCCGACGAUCUUAUUUUAGGAUGCCAACAUGAGACCUGUAAUAAAAUAUGUAAUGGGGUUGAAGGCUGGGGAGGAGGAUCUACUGCUGUACAGCUAAUAAAUCAUAACGGAUUAACAGGCUGGAAUUCUCGGGUGCCAA	0.748
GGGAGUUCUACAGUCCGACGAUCGGAUCAUCUCCACAGCUGUGACCAGAAAUCCUCACGAAGGGCACAUUUCUAGGUAGACCCAAAUGGAACUAAAUCAUGUCACAAGCUGAGAGAAUUACUGAGUUCCUCUCUGGAAUUCUCGGGUGCCAA	0.304
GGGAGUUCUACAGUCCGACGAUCGUUUUGAACCCUUGAACCUGUGAUUGUGACCCAUGAGGGGGGACCUUUCAGUGCUAAAGCUGAUCAUGUGUGUAGCCAGAAAGGUACUUUUUUUCUUUUAAUUUUUGUUUUGGAAUUCUCGGGUGCCAA	1.46
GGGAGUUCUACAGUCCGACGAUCACCUUUUGAUUAGCUGUUGAGGAUUACCCACUGUCUUAGGAAGACCUAUUUUAACCUUACGUGUUCAAUGUGGUGAAUGGUUUGGGCCUUCACAAAUUAGGGGGGGGGCGUGGAAUUCUCGGGUGCCAA	0.824
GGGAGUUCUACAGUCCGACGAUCUGCUCUGCCAGUGUUCAGUAUCAGUGGCUGAAUUAUGGAUAAGAACUGUAGAGAAUCUUCUGUUUAGUCCGUGCUUUUUAUGUAGAAUUGGUUUUAUCUAAUAGUUUUACUGGAAUUCUCGGGUGCCAA	0.279

Mixed results
Substance	target	assay	system	setting	how to read	endpoint	value
PhoQ, residues 284 288 289 292 302 303 SSTLSG	PhoP, residues 12 14 15 18 19 MHTVL (Escherichia coli, UniProt P23836)	Sort-seq, refers to: YFP reporter	E. coli	PhoQ-PhoP variant library, together with: 10 µM Mg2+	baseline: high Mg2+ state, higher = stronger signaling	fold induction	5.43

Excerpt of the above (study 2):
Substitution	normalised enrichment score
L7T	0.224
K3G	0.237
N11P	0.156
G4A	0.225
N11H	0.213
